Experimental data gathered from unrelated publications.
Protocols differ between the studies behind these lines. ± marks the error that the study gave.

Under “log2 fold change”, `Cn1ncc2cc(-c3cncc(Cl)c3N3CCC4(CCNC4=O)CC3)ccc21` is recorded as -1.42 (LS174T; gene expression, microarray, measured: PLD1 mRNA; concentration not given, 4 h; baseline: untreated cells).
With `CC(C)(C)c1cc(-c2ccc3cc4ccccc4nc3n2)nc(-c2ccc3cc4ccccc4nc3n2)c1.Cc1ccncc1.[Cl-].[Cl-].[Ru+2].c1ccc2cc3nc4c5cccnc5c5ncccc5c4nc3cc2c1` the EC50 was 13.7 µM (B16-F10; resazurin; added: light 633 nm, 20 mW, 100 J/cm2).
`CC(C)c1ccc(N(C)c2ccc3c(c2)OCC[C@H]3CNc2cnccc2C(=O)O)cc1` gave an IC50 of 0.00799 µM (HSC-2; cell viability; 7 days).
`Cc1ncsc1-c1ccc(C(C)NC(=O)C2CC(O)CN2C(=O)C(NC(=O)CCCCCCCCCCN2CCCC(Nc3ncc(Cl)c(Nc4ccccc4S(=O)(=O)C(C)C)n3)C2)C(C)(C)C)cc1` (stereo not shown) — result for “log2 fold change”: -2.25 (22Rv1; RNA-seq, measured: PARS2 mRNA; concentration not given; baseline: DMSO).
`C=CC(=O)Nc1cccc(Cn2ncc3cnc(Nc4cnn(CCOC)c4)nc32)c1`: “percent of control” 100% (PCTK3 human; binding, KINOMEscan; 100 nM; lower = stronger binding).
Under “log2 fold change”, `COC1CN([C@H]2CC[C@H]([C@@]3(C)Oc4c(Cl)cc(C(=O)NCc5c(SC)cc(C)[nH]c5=O)c(C)c4O3)CC2)C1` is recorded as 0.126 (RNA-seq, measured: DIXDC1 mouse homolog; mouse, HT-1376 xenograft, whole blood; dose not given; baseline: vehicle).
`CC(C)(C)c1cc(-c2ccc3cccnc3n2)nc(-c2ccc3cccnc3n2)c1.COc1ccncc1.[Cl-].[Cl-].[Ru+2].c1ccc2cc3nc4c5cccnc5c5ncccc5c4nc3cc2c1` has an EC50 of 56.7 ± 1.5 µM (SK-MEL-28; cell viability; dark).
`Nc1ncc(-c2cc(-c3cnn(CC(F)(F)F)c3)ncc2F)nc1C(=O)NC1CNCC(F)C1` (stereo not shown) has a remaining binding of 95% (LCK; KINOMEscan; 1 µM; baseline: DMSO control).
`CNS(=O)(=O)Nc1nccc(Cc2c(C)c3ccc(Oc4ncccc4F)cc3oc2=O)c1F` has an IC50 of 0.0035 µM (RMG-I; cell viability, CellTiter-Glo; 7 days).
With `CCN(CC)CC(=O)Nc1cccc(-n2cc(-c3ccc4ccc(-c5cn(-c6cccc(NC(=O)CN(CC)CC)c6)nn5)cc4c3)nn2)c1` the fold regulation was 2.47 (RCC4; PCR angiogenesis array, measured: ID1; 5 x IC50, 2 h, normoxia; baseline: untreated).
For `Cc1ccncc1.[Cl-].[Cl-].[Ru+2].c1cc(-c2ccc3cccnc3n2)nc(-c2ccc3cccnc3n2)c1.c1ccc2cc3nc4c5cccnc5c5ncccc5c4nc3cc2c1`, the phototoxicity index was 59 (B16-F10; resazurin; added: light 523 nm, 100 J/cm2; baseline: dark EC50 over light EC50).
`CN1CCCNC(=O)c2cccc(c2)C(=O)NCCCN(C)CCCNc2cccc3c2C(=O)c2cccc(c2C3=O)NCCC1`: “log2 fold change” -0.564 (SAS; RNA-Seq, measured: FANCI mRNA; 1 µM, 6 h; baseline: untreated cells).
For `CC(=O)[O-].O.[Cu+2].[O-]c1ccc(Br)cc1C=NCCN1CCOCC1`, the inhibition was 39.2% (hydroxyl radical scavenging; 160 µM).

Some of these lines once more:
`Nc1ncc(-c2cc(-c3cnn(CC(F)(F)F)c3)ncc2F)nc1C(=O)NC1CNCC(F)C1` (stereo not shown) has a remaining binding of 95% (LCK; KINOMEscan; 1 µM; baseline: DMSO control).
`CNS(=O)(=O)Nc1nccc(Cc2c(C)c3ccc(Oc4ncccc4F)cc3oc2=O)c1F` has an IC50 of 0.0035 µM (RMG-I; cell viability, CellTiter-Glo; 7 days).
